Results of several laboratories.
Numbered parts are unrelated; each lists some results of a single study.

Sample 1
Target: Prothrombin, mature alpha-thrombin (F2, Homo sapiens, UniProt P00734)
Method: aptamer microarray, sandwich
Form: DNA with 2'F-ANA
Matrix: in vitro
Concentration: 200 nM
Notes: whole 15-mer aptamer, many near background
Together with: Cy3 exosite-II aptamer, 400 nM
Reading: higher = stronger binding
| Oligonucleotide | mean fluorescence intensity [a.u.] |
| --- | --- |
| GGTTGGTGTGGTTGG (2'F-ANA at 3 4 5 6 10 12 14) | 47.8 |
| GGTTGGTGTGGTTGG (2'F-ANA at 1 3 5 9 12 13 14) | 46.1 |
| GGTTGGTGTGGTTGG (2'F-ANA at 1 2 3 4 6 10 12 15) | 157 |
| GGTTGGTGTGGTTGG (2'F-ANA at 1 3 5 7 8 9 10 11 14 15) | 45.1 |

Sample 2
Target: RNA binding protein fox-1 homolog 2, RRM domain, GST-SBP tag (RBFOX2, Homo sapiens, UniProt O43251-10, residues 100-194)
Method: RNA Bind-n-Seq
Form: RNA
Matrix: in vitro
Concentration: 365 nM
Notes: natural RNA segment, single round, ends assumed
Reference: no-protein control
Reading: higher = stronger binding
Residues (chain): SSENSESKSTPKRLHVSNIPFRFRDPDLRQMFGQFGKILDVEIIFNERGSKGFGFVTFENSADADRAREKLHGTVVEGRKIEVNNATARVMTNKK
| Oligonucleotide | RBNS enrichment (R) |
| --- | --- |
| GGGAGUUCUACAGUCCGACGAUCAUAUGCCCAAGCUAUGCCUUGUCCUCUUGUCCUGUUUGCAUUUCACUGGGAGCUUGCACUAUGCAGCUCCAGUUUCCUGCAGUGAUCAGGGUCCUGCAAGCAGUGGGGAAUGGAAUUCUCGGGUGCCAA | 0.338 |
| GGGAGUUCUACAGUCCGACGAUCAGGGCCAUCUGCCUGAAUGUAACCUGCUAGCUCUCCGAAGGCCCUGCGGGCCUGGCUUGUGUGAGCGUGUGGACAGUGGUGGCCGCGCUGUGCCUGCUCGUGUUGCCUACUGGAAUUCUCGGGUGCCAA | 0.94 |
| GGGAGUUCUACAGUCCGACGAUCCUGGCCUAGGUAUAUGGAUCUCACGCCUCUUGGGGAGACAGAUUGCAAAAAUGGGUUCCCUGCAUGUCUCCGGCUUCUUCCCAUGUUCUCAUUGUUUUUCUCUAGCUACCUGGAAUUCUCGGGUGCCAA | 6.6 |
| GGGAGUUCUACAGUCCGACGAUCCUGACCGUGUGUUACUGCUUUGCCGACGGGGCCUCCCGGCCCUGAUGCGUGUACACUCUGCGGGCUGCACCGGGUGGCUCUGGUUGGGGGCGAAGCUGUGUUGACUGGGAUGGAAUUCUCGGGUGCCAA | 0.379 |

Sample 3
Target: Fragile X messenger ribonucleoprotein 1, C-terminal low-complexity region (Fmr1, Mus musculus, UniProt P35922)
Method: RNA Bind-n-Seq
Form: RNA
Matrix: in vitro
Concentration: 200 nM
Notes: whole 134-nt RNA, ends assumed
Together with: 150 mM LiCl
Reference: input library
Reading: higher = stronger binding
Each molecule: 7-deaza-guanosine replaces G
| Oligonucleotide | log2 enrichment |
| --- | --- |
| GGGAGUUCUACAGUCCGACGAUCUAACUUUAGAGGAGGAUCUGAUGGAUAUGGGAGUGGACGUGGAUUUGGGGAUGGCUAUAAUGGGUAUGGAGGAGGACCUGGAGGUGGCAAUGGAAUUCUCGGGUGUCAAGG | 0.575 |
| GGGAGUUCUACAGUCCGACGAUCUCAAGUCCUGUGCUACACAUCGUAUGUACCGAAUCGGGAAAGGGUUUGGGAGGGAAAGUAUUAUGUUACGCCGUUCGGAUCUGCACUUCCUGGAAUUCUCGGGUGUCAAGG | -1.01 |
| GGGAGUUCUACAGUCCGACGAUCCAAGUCCUGUGCUACACAUCGUAUGUACCGAAUCGGGUGGGUUUUUGGGAAAGGGAAAGUAUUAUGUUACGCCGUUCGGAUCUGCACUUCUGGAAUUCUCGGGUGUCAAGG | -1.04 |
| GGGAGUUCUACAGUCCGACGAUCACCAUGCAGGUGGGCAUCUUUGGGAAGUGGGGCAAGGGGGGGAUAGGGAGGGGGGUAACACUUUGGGCACAGGUGGUCCCAGGUCGUUUCUGGAAUUCUCGGGUGUCAAGG | 1.24 |

Mixed results
| Molecule | target | test | test system | setting | how to read | endpoint | result |
| --- | --- | --- | --- | --- | --- | --- | --- |
| PhoQ, residues 284 288 289 292 302 303 SMMNNA | PhoP, residues 12 14 15 18 19 SYFRT (Escherichia coli, UniProt P23836) | Sort-seq, item: YFP reporter | E. coli | PhoQ-PhoP variant library, together with: 10 µM Mg2+ | reference: high Mg2+ state, higher = stronger signaling | fold induction | 1.15 |

Repeated from above (sample 1):
| Oligonucleotide | mean fluorescence intensity [a.u.] |
| --- | --- |
| GGTTGGTGTGGTTGG (2'F-ANA at 3 4 5 6 10 12 14) | 47.8 |
| GGTTGGTGTGGTTGG (2'F-ANA at 1 3 5 9 12 13 14) | 46.1 |
